Assay results of several laboratories.
Compare with care: the assays were run in different laboratories. ± gives the spread as reported.
Cell line: HeLa

| Structure (SMILES) | assay | test system | conditions | how to read | endpoint | value |
| --- | --- | --- | --- | --- | --- | --- |
| C[C@@H]1CC[C@@H]([C@](C)(O)CNCc2cccc3ccccc23)[C@H](OCc2ccccc2)C1 | cell growth, inhibitor, MTT | – | 72 h | – | IC50 | 5420 nM |
| CN1C[C@H](COc2nccc3c(NCc4ccco4)cc(Cl)nc23)OC1=O | splicing reporter, refers to: GLA | – | 10 µM, 18 h | – | GFP/RFP ratio | 5.13 |
| O=C(NC[C@H](O)CN1CCc2ccccc2C1)c1cc(NC2COC2)ncn1 | co-immunoprecipitation, western blot, refers to: EFTUD2 with GFP-SART3 | – | 10 µM, 3 days | – | protein interaction | decreased |
| O=S(=O)(NCCNC/C=C/c1ccc(Br)cc1)c1cccc2cnccc12 | plasma membrane PKA reporter, inhibitor | – | concentration not given, with: forskolin/IBMX | – | PKA activity | inhibited |
| NCCOc1cc(C(=O)Nc2cc(OCCN)c3ccccc3n2)nc(C(=O)Nc2cc(OCCN)c3ccccc3n2)c1 | cell viability, CellTiter-Glo | – | 72 h | reference: IC50 HeLa over WI-38 | selectivity ratio | 4.4 |
| CC[C@H](C)[C@H](NC(=O)[C@H](Cc1c[nH]cn1)NC(=O)[C@H](Cc1ccccc1)NC(=O)[C@H]1CSCc2ccccc2CSC[C@@H](NC(=O)[C@@H](NC(=O)c2cccnc2)C(C)C)C(=O)N[C@@H](CC(N)=O)C(=O)N[C@@H](C)C(=O)N1)C(=O)N[C@@H](Cc1c[nH]c2ccccc12)C(=O)N[C@@H](Cc1c[nH]cn1)C(N)=O | immunoblot, refers to: LC3 lipidation and p62 degradation | acidified Opti-MEM | concentration not given, 2 h | – | autophagy induction | inactive |
| C[C@@H]1CC[C@@H]([C@](C)(O)Cn2ccnc2)[C@H](OCc2ccccc2)C1 | cell growth, inhibitor, MTT | – | 72 h | – | IC50 | 24500 nM |
| NCCOc1cc(NC(=O)c2cc(OCc3c[nH]nn3)cc(C(=O)Nc3cc(OCCN)c4ccccc4n3)n2)nc2ccccc12 | cell viability, CellTiter-Glo | – | 72 h | reference: IC50 HeLa over WI-38 | selectivity ratio | 5.2 |
| COc1cccc(Nc2nc(Cl)nc3nc[nH]c23)c1 | splicing reporter, refers to: GLA | – | 10 µM, 18 h | – | GFP/RFP ratio | 0.77 |
| COc1cccc2c1C(=O)c1c(O)c3c(c(O)c1C2=O)C[C@@](O)(C(=O)CO)C[C@@H]3O[C@H]1C[C@H](N)[C@H](O)[C@H](C)O1 | MTT | – | 100 µM, 48 h | – | growth inhibition | 82.2 ± 2.08% |
| CC(C)n1cnc2c(N(Cc3ccccc3O)Cc3ccccc3O)nc(Cl)nc21 | splicing reporter, refers to: GLA | – | 10 µM, 18 h | – | GFP/RFP ratio | 0.55 |
| COc1ccc(COC[C@@](O)(CNCc2ccc(F)cc2)[C@@H]2CC[C@@H](C)C[C@H]2OCc2ccc(OC)cc2)cc1 | cell growth, inhibitor, MTT | – | 72 h | – | IC50 | 2840 nM |
| Cc1cc(C)c(CNC(=O)c2cc(Cl)c3c(c2C)O[C@@](C)([C@H]2CC[C@H](N(C)C)CC2)O3)c(=O)[nH]1 | histone methylation reduction, AlphaLISA, refers to: H3K27me3 | – | 72 h | – | EC50 | 0.7 nM |
| C[C@@H]1CC[C@@H]([C@](O)(CNCc2ccccc2)COCc2ccccc2)[C@H](OCc2ccccc2)C1 | cell growth, inhibitor, MTT | – | 72 h | – | IC50 | 2570 nM |
| CCCCCCCC/C=C\CCCCCCCC(=O)O | – | – | 200 µM, 3 h, BSA complex | – | mitochondrial length decrease | 32% |
| Clc1nc(NCc2ccco2)c2[nH]cnc2n1 | GLA poison exon splicing reporter | – | 10 µM, 18 h | – | mean GFP/RFP ratio | 1 |
| NCCCOc1cc(NC(=O)c2cc(Cl)cc(C(=O)Nc3cc(OCCCN)c4ccccc4n3)n2)nc2ccccc12 | cell viability, CellTiter-Glo | – | 72 h | reference: IC50 HeLa over WI-38 | selectivity ratio | 0.9 |
| COc1cccc2c1C(=O)c1c(O)c3c(c(O)c1C2=O)C[C@@](O)(C(=O)CO)C[C@@H]3O[C@H]1C[C@H](N)[C@H](O)[C@H](C)O1 | cell viability, MTT | – | 24 h | – | IC50 | 1.28 ± 0.07 µg/mL |
| COc1ccc(CNC[C@](O)(COCc2ccc(F)cc2)[C@@H]2CC[C@@H](C)C[C@H]2OCc2ccc(F)cc2)cc1 | cell growth, inhibitor, MTT | – | 72 h | – | IC50 | 2450 nM |

| Structure (SMILES) | assay | test system | conditions | how to read | endpoint | value |
| --- | --- | --- | --- | --- | --- | --- |
| COc1cccc2c1C(=O)c1c(O)c3c(c(O)c1C2=O)C[C@@](O)(C(=O)CO)C[C@@H]3O[C@H]1C[C@H](N)[C@H](O)[C@H](C)O1 | – | – | 5 µM, 24 h | reference: untreated | caspase-3/7 activity | > 8 fold |
| O=C(Nc1cc(OCCN2CCCC2)c2ccccc2n1)c1cc(OCc2ccc(F)cc2)cc(C(=O)Nc2cc(OCCN3CCCC3)c3ccccc3n2)n1 | cell viability, CellTiter-Glo | – | 72 h | reference: IC50 HeLa over WI-38 | selectivity ratio | 0.9 |
| CN1CC[C@H](c2c(O)cc(O)c3c(=O)cc(-c4ccccc4Cl)oc23)[C@H](O)C1 | RT-qPCR, refers to: cyclin A, Cdc2 | – | 200 nM | – | mRNA level | decreased |
| C#CCOc1cc(C(=O)Nc2cc(OCCCN)c3ccccc3n2)nc(C(=O)Nc2cc(OCCCN)c3ccccc3n2)c1 | cell viability, CellTiter-Glo | – | 72 h | reference: IC50 HeLa over WI-38 | selectivity ratio | 1 |
| CC[C@H](C)[C@@H]1NC(=O)[C@H](Cc2ccc(O)cc2)NC(=O)[C@H](CC(C)C)NC(=O)[C@@H]2CCCN2C(=O)[C@H](NC(=O)[C@@H](CCCNC(=N)N)NC(=O)[C@@H](CCCNC(=N)N)NC(=O)[C@H](CCCCN=[N+]=[N-])NC(C)=O)CSCSC[C@@H](C(=O)N[C@H](CCCNC(=N)N)C(=O)N[C@H](CCCNC(=N)N)C(N)=O)NC(=O)[C@H](C(C)C)NC(=O)[C@@H]2CCCN2C(=O)[C@H](CC(=O)O)NC(=O)[C@H](Cc2ccc(O)cc2)NC(=O)[C@H](CO)NC1=O | cell permeability, NanoClick | – | 18 h | – | EC50 | 1260 nM |
| O=C(Nc1cc(OCCN2CCCC2)c2ccccc2n1)c1cc(OCCN2CCCC2)cc(C(=O)Nc2cc(OCCN3CCCC3)c3ccccc3n2)n1 | cell viability, CellTiter-Glo | – | 72 h | reference: IC50 HeLa over WI-38 | selectivity ratio | 0.9 |
| COc1ccc(NC(=S)N/N=C/c2cccc3cc4ccccc4nc23)cc1 | annexin V/PI | – | concentration not given, 48 h, dosed at IC12.5 | – | late apoptotic cells | 6.6% |
| C[C@@H]1CC[C@@H]([C@](C)(O)CNCc2ccccc2)[C@H](OCc2ccccc2)C1 | cell growth, inhibitor, MTT | – | 72 h | – | IC50 | 2840 nM |
| Nc1ncnc2c1ncn2C1CCCO1 (stereo not shown) | splicing reporter, refers to: GLA | – | 10 µM, 18 h | – | GFP/RFP ratio | 0.24 |
| COc1ccccc1CNC[C@@](C)(O)[C@@H]1CC[C@@H](C)C[C@H]1OCc1ccccc1 | cell growth, inhibitor, MTT | – | 72 h | – | IC50 | 4590 nM |
| CN(C)CCCOc1cc(NC(=O)c2cc(Cl)cc(C(=O)Nc3cc(OCCCN(C)C)c4ccccc4n3)n2)nc2ccccc12 | cell viability, CellTiter-Glo | – | 72 h | reference: IC50 HeLa over WI-38 | selectivity ratio | 2.3 |
| C[C@@H]1CC[C@@H]([C@@](O)(CNCc2cccc3ccccc23)COCc2ccccc2)[C@H](OCc2ccccc2)C1 | cell growth, inhibitor, MTT | – | 72 h | – | IC50 | 2520 nM |
| Cn1cnc2c(NCc3ccccc3)nc(Cl)nc21 | splicing reporter, refers to: GLA | – | 10 µM, 18 h | – | GFP/RFP ratio | 0.17 |
| COC(=O)COc1c(Cc2cc(C(C)(C)CC(C)(C)C)cc(-n3nc4ccccc4n3)c2OCC(=O)OC)cc(C(C)(C)CC(C)(C)C)cc1-n1nc2ccccc2n1 | MTT | – | 100 µM, 48 h | – | growth inhibition | 76.2 ± 3.11% |
| Clc1nc(Nc2ccc(N3CCOCC3)cc2)c2ncn(C3CCCCC3)c2n1 | splicing reporter, refers to: GLA | – | 10 µM, 18 h | – | GFP/RFP ratio | 0.17 |
| CN(C)CCCOc1cc(NC(=O)c2cccc(C(=O)Nc3cc(OCCCN(C)C)c4ccccc4n3)n2)nc2ccccc12 | cell viability, CellTiter-Glo | – | 72 h | reference: IC50 HeLa over WI-38 | selectivity ratio | 0.7 |
| Nc1nc(F)nc2nc[nH]c12 | GLA poison exon splicing reporter | – | 1 µM, 18 h, solubility limited above 1 µM | – | mean GFP/RFP ratio | 0.16 |
| CC(=O)N[C@@H](CS)C(=O)O | PI flow cytometry | – | concentration not given, 48 h | – | G2/M phase cells | 14.9 ± 2% |

For quick reference, copied from above:
| Structure (SMILES) | assay | test system | conditions | how to read | endpoint | value |
| --- | --- | --- | --- | --- | --- | --- |
| C[C@@H]1CC[C@@H]([C@@](O)(CNCc2cccc3ccccc23)COCc2ccccc2)[C@H](OCc2ccccc2)C1 | cell growth, inhibitor, MTT | – | 72 h | – | IC50 | 2520 nM |
| Cn1cnc2c(NCc3ccccc3)nc(Cl)nc21 | splicing reporter, refers to: GLA | – | 10 µM, 18 h | – | GFP/RFP ratio | 0.17 |
| COC(=O)COc1c(Cc2cc(C(C)(C)CC(C)(C)C)cc(-n3nc4ccccc4n3)c2OCC(=O)OC)cc(C(C)(C)CC(C)(C)C)cc1-n1nc2ccccc2n1 | MTT | – | 100 µM, 48 h | – | growth inhibition | 76.2 ± 3.11% |
| Clc1nc(Nc2ccc(N3CCOCC3)cc2)c2ncn(C3CCCCC3)c2n1 | splicing reporter, refers to: GLA | – | 10 µM, 18 h | – | GFP/RFP ratio | 0.17 |
| CN(C)CCCOc1cc(NC(=O)c2cccc(C(=O)Nc3cc(OCCCN(C)C)c4ccccc4n3)n2)nc2ccccc12 | cell viability, CellTiter-Glo | – | 72 h | reference: IC50 HeLa over WI-38 | selectivity ratio | 0.7 |
